Measured values from different studies.
Numbered parts are unrelated; each lists some results of a single study. Changes are numbered by the printed parent chain.

Series 1 — target: JDP2, bZIP domain (human); method: DHFR protein complementation; matrix: yeast; reference: wild-type JUN-FOS pair; direction: higher = stronger binding
Setting: single substitutions, most at no-binding floor
Parent: JUN, bZIP domain (human); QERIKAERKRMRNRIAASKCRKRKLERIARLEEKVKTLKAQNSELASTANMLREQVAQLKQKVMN; partner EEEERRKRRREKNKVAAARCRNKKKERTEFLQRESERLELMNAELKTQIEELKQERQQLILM
Substitution	binding fitness [natural log]
L31C	0.0996
I28V	0.287
Q55E	0.308
A57N	0.318
L38N	-0.139
Q41A	0.253
A57T	0.305
Q41R	0.262

Series 2 — method: RNA Bind-n-Seq; molecule type: RNA; matrix: in vitro; concentration: 365 nM; reference: no-protein control; direction: higher = stronger binding
Target: RNA binding protein fox-1 homolog 2, RRM domain, GST-SBP tag (RBFOX2, Homo sapiens, UniProt O43251-10, residues 100-194)
Setting: natural RNA segment, single round, ends assumed
All sequences stand within: GGGAGUUCUACAGUCCGACGAUC … UGGAAUUCUCGGGUGCCAA
Residues (chain): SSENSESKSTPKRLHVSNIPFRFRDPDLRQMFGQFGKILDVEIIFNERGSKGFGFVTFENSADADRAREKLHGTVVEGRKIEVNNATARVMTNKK
Oligonucleotide	RBNS enrichment (R)
AUUUCUGUCAACCCUGGACCAACCAGUCUCUUAGAAGCCACUCAAGGGUAUAACACAUGCUCCGAGGUGGGUGUGUCUCUGACCAUCUCAAGCACCCUAUCUUGUGUCCC	0.261
CUCUCCAAAUUCUUCCUUCUUUGUGCACCCUGCCUUUCUUCCCUUCCAUCCUUUCUUUUUUGUAUAUUAUUGUUUACAAUAAAUAUACAUUGCAUUAAAGUGAAAACAGC	0.451
CUCAGUGUGAUGUAUAAUGAUGCAACAGGGACCCUUGUAAAUUGUCAUACGCCAAUAAAAUGUCACAGUAAUAACUGCUGUUGUUUGUUUACCUGUGUCUAUUUCACACA	0.361
UAAAAAGCUUUUAUAUGAGACAGACAAGUCCCUGAGUUCCAGGCCAGCCUUGGUGGCAAGUCACUAGGAAACUUCAAGGUCUGUCUCAUCUUUAUUUUACUGUGUGCCCC	0.41
UCUUGGGCAAUUUUCUAUUAGUGUUUCUUAUUUUGGCCAGUUCUUUUAUUUAUGUCCUUGUGACCCAGGUACUUGGGGGGCCAGCUACCCUUCUGGCCUUUUAGCGUCUU	0.61
GCAGUUGUGCCCAGACCUUCAUGAAUGAAAACGUCAACGUUGAAGCGUUGCUGAUGGAAGCAGCGUGUGAAGGGAUACGGACAAUCUCUCAGUCGAUGAGCCCUCGUCUG	0.651
GAGAGAGUGGAGAGAGCAGUAAGGAGGCCACUGGAAGGAGCCAGACACAGAUUCUGGUUCAUUCAUUCAUUCAUUCCUUAGACAUUUUCGGUUUUACAAAGGAAGAACAG	0.575
AGUCAUGGCAAAUAGAAUUGGGCUGGGGUUUCUCCUUCUUUUCAGUUCAUUGUUUGCCCUGCUAGGAAUUAGAAGACAGACACCAUGUCCCAGGACAGUGUUACUUCUUC	0.588

Series 3 — target: CCNB3, cyclin fold, Cln2 fusion (human); method: yeast growth competition, sequencing; matrix: yeast; setting: strong parent motif; reference: not given; direction: higher = stronger binding
Parent: SCAPER docking peptide (human); SNARRSLNFGGST; partner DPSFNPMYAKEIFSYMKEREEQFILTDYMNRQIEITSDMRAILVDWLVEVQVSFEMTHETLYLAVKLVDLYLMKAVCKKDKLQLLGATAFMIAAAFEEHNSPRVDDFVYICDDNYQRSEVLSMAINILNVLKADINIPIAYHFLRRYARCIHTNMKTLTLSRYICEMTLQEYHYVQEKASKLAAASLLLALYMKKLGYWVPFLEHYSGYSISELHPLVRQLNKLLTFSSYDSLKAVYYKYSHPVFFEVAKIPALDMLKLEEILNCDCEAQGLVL
Substitution	normalised enrichment score
A3T	0.665
R4C	0.513
L7N	-0.0211
S12W	1.12
F9T	0.158
S6L	0.957
R5F	0.715
F9H	0.235
S12T	1.38
R4V	0.161
N8R	0.472
G10V	-0.171
S1L	1.68
T13E	1.47
L7P	0.0556
G10S	0.76
R5Q	0.421
S12C	1.41

Series 4 — method: RNA Bind-n-Seq; molecule type: RNA; matrix: in vitro; concentration: not given; setting: RNA with constant flanks, ends assumed; reference: input RNA pool; direction: higher = stronger binding
Target: RING finger protein unkempt homolog, zinc fingers 1-6, GST-SBP tag (UNK, Homo sapiens, UniProt Q9C0B0, residues 30-357)
UniProt Q9C0B0, sequence (30-357, looked up): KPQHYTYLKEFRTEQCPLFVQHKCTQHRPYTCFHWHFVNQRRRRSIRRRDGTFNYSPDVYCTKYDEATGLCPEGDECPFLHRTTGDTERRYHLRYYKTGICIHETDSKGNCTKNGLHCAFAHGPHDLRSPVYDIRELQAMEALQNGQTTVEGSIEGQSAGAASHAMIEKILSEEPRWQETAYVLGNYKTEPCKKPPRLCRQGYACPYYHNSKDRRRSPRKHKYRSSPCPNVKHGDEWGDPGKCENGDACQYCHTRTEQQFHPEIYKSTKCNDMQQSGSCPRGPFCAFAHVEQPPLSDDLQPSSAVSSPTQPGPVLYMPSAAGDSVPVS
All sequences stand within: GGGAGUUCUACAGUCCGACGAUC … CAACAGAGGAUUGAGCAUCA
Oligonucleotide	bound/input enrichment
UGCGUCCUUUUUCGUUUUUCGGACGAUGCCUUCAAUACCACCUUUAUUUCCACCACCGGAACCGACUUUAAGAUCAAAACAGUGGAACUACAAGGAAAGAAGAUCAAGCUACAGAUAUGG	0.187 ratio
UUUGGUAAUGAAUAAAUUCUGCUAGUGGUAUAUGUUGAUCUGAACUUACAAUGAUGGGAUACCGAAUUGGCAGAGUGGCAGAUGUUCACAAUUGUCUACAAGUAGAUGUGCUAGACAAUG	0.41 ratio
UAUUCACAACUUGGAACAUUUGCACCAAUGUGGGAUGUAUUCAAAACAUCUACAGAGAAAUCCGCAAAUUGUCAUUUGGAUCUUGUUAGAAAAUUACAGGAAUUAAUAAAGGAAGUUCAG	1.87 ratio
GGAGGGUAUGGAGGCUAUGAUGACUAUGGAGGUUAUAAUGACGGGUAUGGUUUUGGGUCUGACCGAUUUGGAAGAGACCUAAACUACUGUUUCUCAGGAAUGUCUGAUCAUAGAUAUGGA	0.46 ratio
AAGAUUUGGAGAGGAUGUGCUUGAAGUAAUCAAGGACUCUAAUCCUGUAGACAAGUGCAAAUCCGAUCCAAACAAGGCAUAUAUUCAGAUUACCUACGUGGAGCCCUUCUUUGACACCUA	0.134 ratio
UUCUCCUCAUUAUUUAAAAAUGCUAAACCUUGUAUCUCACUUUUUCUCUAACACUGAUUUAACCGCUAACGAGGUAGAAGCAACAUUCAUUCUCCUGGUCUUACAUAUGAAUUUAAGUAU	0.364 ratio
CCAGAAGCUGUUGAAGUCUUGCUGAAUUAUGCAUACACGGCUCAGUUGAAAGCUGAUAAGGAAUCCGUAAAAGAUGUUUAUUCUGCAGCCAAGAAGCUGAAGAUGGACCGAGUCAAGCAG	0.105 ratio
CUCUUUGAUCAGGCAUAUUUGAUGAGGCCUUCUAUAAUAUUUUUUGAUGAAAUAGAUGGCUCCGCUCCUGUUCGUUCUAGUAGACAAGAUCAGAUCCACAGCUCUAUAGUGUCAACCCUC	0.294 ratio

Series 5 — method: DHFR PCA, deep sequencing; matrix: yeast; together with: (+)-ABA 4.8 µM; reference: wild-type fitted maximum; direction: higher = stronger binding
Target: ABI1, truncated, D143A, DHFR fusion (Arabidopsis thaliana)
Setting: methotrexate growth selection, single substitutions
Parent: PYL1, truncated, DHFR fusion (Arabidopsis thaliana); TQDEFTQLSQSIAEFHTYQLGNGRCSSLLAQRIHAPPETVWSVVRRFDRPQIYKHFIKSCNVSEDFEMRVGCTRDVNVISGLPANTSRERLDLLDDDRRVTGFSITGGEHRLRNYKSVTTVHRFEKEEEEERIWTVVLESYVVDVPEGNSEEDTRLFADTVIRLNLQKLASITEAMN; partner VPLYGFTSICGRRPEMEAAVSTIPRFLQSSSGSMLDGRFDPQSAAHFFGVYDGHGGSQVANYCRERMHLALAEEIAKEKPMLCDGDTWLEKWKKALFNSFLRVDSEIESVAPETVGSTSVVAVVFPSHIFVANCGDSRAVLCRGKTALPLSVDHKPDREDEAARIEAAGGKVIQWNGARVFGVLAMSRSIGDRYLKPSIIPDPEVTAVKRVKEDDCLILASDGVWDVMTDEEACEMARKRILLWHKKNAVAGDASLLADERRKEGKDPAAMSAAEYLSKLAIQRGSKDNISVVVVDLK
Substitution	relative binding score
G21A	74.5%
V40K	3.9%
T120E	-0.762%
T39F	48.7%
V142Q	77.1%
L112N	-9.8%
I105Y	-8.17%
C72F	23.1%
D65V	31.4%
F103Q	4.19%
L112V	4.24%
V118N	20.4%
L82F	48.7%
G71N	14.3%
A30L	70.8%
S140W	-3.01%
Y115P	-3.22%
R163Y	0.444%
V70N	10%
F66C	57.1%
R99D	-3.01%
